Results collected from several papers.
Numbered parts are unrelated; each lists some results of a single study.

Study 1 — technique: aptamer microarray, sandwich; molecule type: DNA with 2'F-ANA; matrix: in vitro; concentration: 200 nM; together with: Cy3 exosite-II aptamer, 400 nM; direction: higher = stronger binding; strand: GGTTGGTGTGGTTGG
Target: Prothrombin, mature alpha-thrombin (F2, Homo sapiens, UniProt P00734)
Notes: whole 15-mer aptamer, many near background
Modification | mean fluorescence intensity [a.u.]
2'F-ANA at 2 6 7 11 12 | 594
2'F-ANA at 2 4 8 9 12 15 | 549
2'F-ANA at 1 2 4 8 9 11 15 | 113
2'F-ANA at 3 4 5 11 12 14 | 56.6
2'F-ANA at 1 2 5 6 8 9 13 14 15 | 50.9
2'F-ANA at 4 5 6 8 9 10 11 14 15 | 47.7
2'F-ANA at 4 6 7 10 12 15 | 102
2'F-ANA at 1 3 4 5 6 7 8 9 13 | 59.1
2'F-ANA at 1 2 4 6 8 11 12 13 | 184
2'F-ANA at 1 3 5 6 7 10 13 15 | 44.1
2'F-ANA at 1 2 3 5 6 7 9 13 15 | 53.2
2'F-ANA at 1 3 4 5 6 7 9 11 14 15 | 56.5
2'F-ANA at 1 2 6 7 8 10 | 53.8
2'F-ANA at 1 8 10 | 67.3
2'F-ANA at 1 4 5 6 7 8 10 12 13 14 | 48.5
2'F-ANA at 1 4 7 12 13 14 | 59.8

Study 2 — technique: RNA Bind-n-Seq; molecule type: RNA; matrix: in vitro; concentration: 365 nM; relative to: no-protein control; direction: higher = stronger binding
Target: RNA binding protein fox-1 homolog 2, RRM domain, GST-SBP tag (RBFOX2, Homo sapiens, UniProt O43251-10, residues 100-194)
Notes: natural RNA segment, single round, ends assumed
Constant ends, left off below: GGGAGUUCUACAGUCCGACGAUC … UGGAAUUCUCGGGUGCCAA
Construct (chain): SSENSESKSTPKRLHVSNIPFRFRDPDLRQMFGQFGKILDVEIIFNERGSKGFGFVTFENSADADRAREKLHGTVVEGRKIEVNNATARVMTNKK
Strand | RBNS enrichment (R)
AACUUUGCAACUUCCGUAAUUAGGAACCUGUUUCUUACAGCUUUUCUAUGCUAAACUUUGUUCUGUUCAGUUCUAGAGUGUAUACAGAACGAAUUGAUGUGUAACUGUAU | 0.4
UUCUCCUCCUCCCCUCAGCCUUGUGGCCAGUUCCUCUUCACAUGAAGCCCCUGGCAUUUGCUGGGGAAGGGACUGGCCUGGUACUUGCUGUUAGGGCAGGAAGGGGCAAA | 0.262
AUAACAUAAAUACCAUAAAAAGGAGGAAAUAAAGAUAAGUAAACAUCUCAUUUCUCAAAAAAAAAAAAUGAUGCCUGUGUUUAUGUACAAUUUAAAUGAUUACAGAGUGC | 0.613
GCGCUUGCGUGGUGGAUCCAACACCAGCCCUGCGUCGUGGGACUUGCCUCAGAUCAGCCUGCGACUGCAAGAUUCUUACUGCAGUAGAGAACUCUUUUUCUCCCUUGUAC | 0.438
UGGCUGAAGGAACUUAAGAUGUUCCAGCGAAGGCAGCAUUUGGGCAAGGAGUUUCAGAAGCUAGACAUGUCUGCAAUGAUUCAAAUUUGGUACGAAAGGACUGCCAACCU | 0.259
AUCUUCUAGCUAUAUAAAGAAACAAUCCAGCUGCUUAGAAGCUGUGACUAAUACAGAGUUGACUUUAAAAAAAAGCCCCUCCAAAAACUCAACUCAGCAUCUCUCCCCCU | 0.46
UUCCUCAAUGGGGGUUCAUGUUCUUGGACUGCGGGCCCUCAGUCCUUAACUGGAAAGUGACCGUCCACUGCCCCAUGGAGCCCAUCUGGACACAGCACAGCCCCAAAACC | 0.21
GCCUCUUCAGGAAAGAAACCUCAUUCUUUGGCAAGCAGGAGGUGACACUAGAUGGCUGUGAAUGUGAUCCGCUCACUGACACUCUGUAAAGGCCAAUCAAUGCACUGUCU | 0.278

Study 3 — technique: RNA Bind-n-Seq; molecule type: RNA; matrix: in vitro; concentration: not given; relative to: input RNA pool; direction: higher = stronger binding
Target: RING finger protein unkempt homolog, zinc fingers 1-6, GST-SBP tag (UNK, Homo sapiens, UniProt Q9C0B0, residues 30-357)
UniProt Q9C0B0, sequence (30-357, looked up): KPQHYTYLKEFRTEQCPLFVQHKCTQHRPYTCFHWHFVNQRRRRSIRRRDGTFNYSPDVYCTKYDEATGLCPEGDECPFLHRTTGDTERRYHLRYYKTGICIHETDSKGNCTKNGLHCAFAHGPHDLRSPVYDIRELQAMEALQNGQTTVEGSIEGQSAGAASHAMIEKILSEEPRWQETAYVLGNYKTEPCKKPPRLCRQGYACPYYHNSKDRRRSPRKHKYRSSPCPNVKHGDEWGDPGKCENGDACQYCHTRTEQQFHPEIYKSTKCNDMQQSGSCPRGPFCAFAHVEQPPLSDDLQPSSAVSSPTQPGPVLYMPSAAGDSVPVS
Notes: RNA with constant flanks, human and mouse sites, ends assumed
Constant ends, left off below: GGGAGUUCUACAGUCCGACGAUC … CAACAGAGGAUUGAGCAUCA
Strand | bound/input enrichment
AACAUUAGAAGACAGUGGGAAGAUGAUCCUCCAAAUGUACACAUUAUUGGAAAUCUACCUUUUAGUGUUUCAACUCCACUGAUUAUCAAGUGGCUUGAAAAUAUUUCUCUUAAAGAUGGC | 3.38 ratio
AGGUUUCAGAGCGCAGCCAUCGGUGCGCUGCAGGAGGCUAGCGAAGCGUACCUGGUGGGUCUGUUCGAAGAUACCAACCUGUGUGCCAUCCACGCUAAGAGAGUCACCAUCAUGCCCAAA | 0.122 ratio
ACAGAGCCGAGUAGCAAUAACAGUGAUGAUUGUCCAGGCAAGAGUGAAGACGACGAACACUUAGACCAAAUUCAAAGUAAAGACUCCUGUGAUGAGGGAAAUAAAGUGAACAGUAAUGUC | 0.552 ratio
GAGCUUAAAGAAGUGGAGCCCAAAUUAGCCGCCUGGAUCCAAAAACUUAAUAGCUUUGGCUUAGAUGCCACAGGAACUUUCUUUUCUCGUUAUGGAGCAUCUCUUAAACUGCUUGAUUUU | 0.758 ratio
AAUGAACACUUUAAUAUUUUCCUUACUGCUAAGGACCUGAACGCCUACAAGAAGCAAGGGAUAGCAUUGCUGACCAGAAUGGGCGAGUCAGUCAAGCACGUCACUGGCGGCUACAAGCUG | 0.185 ratio
AGUGCUGGGCAUGUGGAAGUAGCCAGAUUGCUGCUAGAAAAUGGAGCUGGCAUCAAUACGCAUUCCAAUGAAUUUAAAGAGAGUGCCCUUACAUUAGCUUGUUAUAAAGGACAUCUAGAG | 0.629 ratio
CUGUGGAACACCAUGGUCAUUGGAGGCUAUGCUGACGGAGAAAGCUUCCUCGGUUAUGUGGACAUGCUUGGUGUAGCUUAUGAAGCCCCUUCACUGGCCACUGGUUAUGGUGCAUACUUG | 0.129 ratio
AUGGCAGCUCAUGUCAGUAGGGACAGAGUUAUAAAGAACUGUAUAGCCCAGACCUCAGCAGUAGUAAAAAGUCUCCGAGAAGAGAGAGAAAAGAACCUGGAUGACUUAACGUUAUUAAAG | 0.685 ratio

Study 4 — technique: universal PBM; molecule type: double-stranded DNA, one strand shown; matrix: in vitro; concentration: 600 nM; direction: higher = stronger binding
Target: Sal-like protein 4, full length isoform A (SALL4, Homo sapiens, UniProt Q9UJQ4, residues 1-1053)
UniProt Q9UJQ4, sequence (whole entry, looked up): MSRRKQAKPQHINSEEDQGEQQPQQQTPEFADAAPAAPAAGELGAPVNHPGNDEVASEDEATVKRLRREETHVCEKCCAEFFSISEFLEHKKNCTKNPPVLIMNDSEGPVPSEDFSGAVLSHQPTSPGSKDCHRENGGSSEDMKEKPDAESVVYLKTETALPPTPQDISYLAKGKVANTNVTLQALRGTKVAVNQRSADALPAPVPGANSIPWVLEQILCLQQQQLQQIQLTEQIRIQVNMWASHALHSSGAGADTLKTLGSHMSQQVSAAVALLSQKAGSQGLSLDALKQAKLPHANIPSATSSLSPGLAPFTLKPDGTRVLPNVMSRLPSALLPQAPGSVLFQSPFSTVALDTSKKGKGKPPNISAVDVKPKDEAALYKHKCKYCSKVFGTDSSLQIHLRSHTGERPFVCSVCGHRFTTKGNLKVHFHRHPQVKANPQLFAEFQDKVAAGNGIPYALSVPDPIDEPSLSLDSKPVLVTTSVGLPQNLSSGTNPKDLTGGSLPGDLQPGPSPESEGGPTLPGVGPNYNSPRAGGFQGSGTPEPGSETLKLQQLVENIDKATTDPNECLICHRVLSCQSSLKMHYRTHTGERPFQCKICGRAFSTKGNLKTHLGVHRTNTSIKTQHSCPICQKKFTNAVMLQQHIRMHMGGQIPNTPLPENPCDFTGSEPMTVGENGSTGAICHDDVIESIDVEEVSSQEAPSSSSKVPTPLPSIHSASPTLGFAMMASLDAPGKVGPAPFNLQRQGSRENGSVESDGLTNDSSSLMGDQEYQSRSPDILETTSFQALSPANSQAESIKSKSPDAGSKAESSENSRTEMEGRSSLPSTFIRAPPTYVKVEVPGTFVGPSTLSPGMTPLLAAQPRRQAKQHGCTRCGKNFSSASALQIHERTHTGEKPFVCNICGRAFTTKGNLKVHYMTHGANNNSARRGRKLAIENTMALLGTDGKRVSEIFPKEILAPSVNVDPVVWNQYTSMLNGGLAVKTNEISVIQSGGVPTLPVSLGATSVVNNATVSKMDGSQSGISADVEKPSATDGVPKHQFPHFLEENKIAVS
Notes: 8-mer, flanks averaged, mean of replicates
Strand | E-score
GGGCATAC | -0.0773
AAACGGAT | 0.0826
AGAGCGCA | -0.248
GACTCCTC | -0.0741
CTGAGGGA | -0.218
CAAGTCTA | 0.167
CCATATAG | 0.135
CCGAGCCC | -0.33
GTGGTTTA | 0.035
CTCCATAA | 0.262
CGCGAACC | -0.267
GGCGACTA | -0.171
ACAATCAG | 0.0581
CAATCATG | 0.145
TCGATCCA | -0.0611
CTGGACAG | -0.165
GGTTGTCA | -0.00414
GCTGCAAC | -0.0595
CAATATTA | 0.434
AGGCCCTC | -0.309
AAAGGTAG | 0.0571
CGGGACGA | -0.195
CGTGAATC | -0.0529
AACCGGGG | -0.393
ATTAAGCA | 0.206

A few entries again (study 3):
Strand | bound/input enrichment
AACAUUAGAAGACAGUGGGAAGAUGAUCCUCCAAAUGUACACAUUAUUGGAAAUCUACCUUUUAGUGUUUCAACUCCACUGAUUAUCAAGUGGCUUGAAAAUAUUUCUCUUAAAGAUGGC | 3.38 ratio
AGGUUUCAGAGCGCAGCCAUCGGUGCGCUGCAGGAGGCUAGCGAAGCGUACCUGGUGGGUCUGUUCGAAGAUACCAACCUGUGUGCCAUCCACGCUAAGAGAGUCACCAUCAUGCCCAAA | 0.122 ratio
ACAGAGCCGAGUAGCAAUAACAGUGAUGAUUGUCCAGGCAAGAGUGAAGACGACGAACACUUAGACCAAAUUCAAAGUAAAGACUCCUGUGAUGAGGGAAAUAAAGUGAACAGUAAUGUC | 0.552 ratio
GAGCUUAAAGAAGUGGAGCCCAAAUUAGCCGCCUGGAUCCAAAAACUUAAUAGCUUUGGCUUAGAUGCCACAGGAACUUUCUUUUCUCGUUAUGGAGCAUCUCUUAAACUGCUUGAUUUU | 0.758 ratio
AAUGAACACUUUAAUAUUUUCCUUACUGCUAAGGACCUGAACGCCUACAAGAAGCAAGGGAUAGCAUUGCUGACCAGAAUGGGCGAGUCAGUCAAGCACGUCACUGGCGGCUACAAGCUG | 0.185 ratio
AGUGCUGGGCAUGUGGAAGUAGCCAGAUUGCUGCUAGAAAAUGGAGCUGGCAUCAAUACGCAUUCCAAUGAAUUUAAAGAGAGUGCCCUUACAUUAGCUUGUUAUAAAGGACAUCUAGAG | 0.629 ratio
